Assay results gathered from unrelated publications.
Each line is one published result; not all experiments were run side by side. Values joined by “and” are separate records of one study, mostly repeats; a detail may differ. ± marks the error that the study gave.
TARDBP aggregated: TAR DNA-binding protein 43, aggregated (TARDBP, Homo sapiens, UniProt Q13148)
Chain of UniProt Q13148 (whole entry, looked up): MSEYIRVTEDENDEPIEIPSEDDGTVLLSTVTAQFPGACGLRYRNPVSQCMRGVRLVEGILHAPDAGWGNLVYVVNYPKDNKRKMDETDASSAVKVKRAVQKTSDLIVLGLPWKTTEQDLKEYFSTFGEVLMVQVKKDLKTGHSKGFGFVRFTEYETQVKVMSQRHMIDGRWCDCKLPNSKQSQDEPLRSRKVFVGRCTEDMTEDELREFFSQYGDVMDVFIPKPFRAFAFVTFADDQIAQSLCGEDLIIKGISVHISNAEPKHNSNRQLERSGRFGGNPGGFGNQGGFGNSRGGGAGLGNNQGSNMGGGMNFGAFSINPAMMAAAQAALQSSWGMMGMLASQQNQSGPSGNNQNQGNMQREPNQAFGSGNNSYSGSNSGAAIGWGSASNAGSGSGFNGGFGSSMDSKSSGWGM
CASP10: Caspase-10 (CASP10, Homo sapiens, UniProt Q92851)
Chain of UniProt Q92851 (whole entry, looked up): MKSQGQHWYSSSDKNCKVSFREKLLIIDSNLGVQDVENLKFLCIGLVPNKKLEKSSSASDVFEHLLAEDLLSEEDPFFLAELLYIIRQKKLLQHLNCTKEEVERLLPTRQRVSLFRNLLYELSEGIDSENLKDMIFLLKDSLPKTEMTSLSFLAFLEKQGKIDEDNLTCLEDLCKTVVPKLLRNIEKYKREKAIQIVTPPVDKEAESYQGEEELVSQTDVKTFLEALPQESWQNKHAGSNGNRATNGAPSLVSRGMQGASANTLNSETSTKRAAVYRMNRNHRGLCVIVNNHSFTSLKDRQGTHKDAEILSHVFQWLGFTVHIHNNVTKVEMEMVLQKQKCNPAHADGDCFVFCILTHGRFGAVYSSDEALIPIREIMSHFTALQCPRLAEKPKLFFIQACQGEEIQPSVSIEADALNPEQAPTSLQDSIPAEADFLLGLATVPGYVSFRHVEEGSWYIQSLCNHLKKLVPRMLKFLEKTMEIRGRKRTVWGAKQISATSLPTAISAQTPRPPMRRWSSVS
CASP8: Caspase-8 (CASP8, Homo sapiens, UniProt Q14790)
Chain of UniProt Q14790 (whole entry, looked up): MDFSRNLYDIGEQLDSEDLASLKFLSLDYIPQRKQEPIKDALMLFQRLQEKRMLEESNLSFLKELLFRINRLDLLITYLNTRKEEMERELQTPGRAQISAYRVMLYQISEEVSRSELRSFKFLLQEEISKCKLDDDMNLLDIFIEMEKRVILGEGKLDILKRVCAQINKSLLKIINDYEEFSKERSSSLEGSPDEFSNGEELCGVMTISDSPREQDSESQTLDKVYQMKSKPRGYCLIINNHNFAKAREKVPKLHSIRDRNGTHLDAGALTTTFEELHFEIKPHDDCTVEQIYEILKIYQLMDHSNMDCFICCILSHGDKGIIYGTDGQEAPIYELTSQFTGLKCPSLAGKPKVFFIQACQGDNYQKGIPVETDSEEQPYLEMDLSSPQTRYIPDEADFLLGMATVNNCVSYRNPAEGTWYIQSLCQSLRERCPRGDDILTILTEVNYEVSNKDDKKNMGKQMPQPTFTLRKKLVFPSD
Chain of UniProt Q92633 (whole entry, unmodified, looked up): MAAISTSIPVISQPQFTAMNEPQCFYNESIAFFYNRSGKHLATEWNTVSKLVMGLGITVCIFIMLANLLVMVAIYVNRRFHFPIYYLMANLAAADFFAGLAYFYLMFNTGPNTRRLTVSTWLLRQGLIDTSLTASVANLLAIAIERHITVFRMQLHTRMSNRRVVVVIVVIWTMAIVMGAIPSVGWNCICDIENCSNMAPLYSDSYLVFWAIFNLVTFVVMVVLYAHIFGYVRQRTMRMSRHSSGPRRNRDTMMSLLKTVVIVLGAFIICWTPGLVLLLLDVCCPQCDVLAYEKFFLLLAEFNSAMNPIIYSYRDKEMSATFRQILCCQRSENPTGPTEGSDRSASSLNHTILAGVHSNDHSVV
Chain of UniProt Q9Y4E8 (whole entry, looked up): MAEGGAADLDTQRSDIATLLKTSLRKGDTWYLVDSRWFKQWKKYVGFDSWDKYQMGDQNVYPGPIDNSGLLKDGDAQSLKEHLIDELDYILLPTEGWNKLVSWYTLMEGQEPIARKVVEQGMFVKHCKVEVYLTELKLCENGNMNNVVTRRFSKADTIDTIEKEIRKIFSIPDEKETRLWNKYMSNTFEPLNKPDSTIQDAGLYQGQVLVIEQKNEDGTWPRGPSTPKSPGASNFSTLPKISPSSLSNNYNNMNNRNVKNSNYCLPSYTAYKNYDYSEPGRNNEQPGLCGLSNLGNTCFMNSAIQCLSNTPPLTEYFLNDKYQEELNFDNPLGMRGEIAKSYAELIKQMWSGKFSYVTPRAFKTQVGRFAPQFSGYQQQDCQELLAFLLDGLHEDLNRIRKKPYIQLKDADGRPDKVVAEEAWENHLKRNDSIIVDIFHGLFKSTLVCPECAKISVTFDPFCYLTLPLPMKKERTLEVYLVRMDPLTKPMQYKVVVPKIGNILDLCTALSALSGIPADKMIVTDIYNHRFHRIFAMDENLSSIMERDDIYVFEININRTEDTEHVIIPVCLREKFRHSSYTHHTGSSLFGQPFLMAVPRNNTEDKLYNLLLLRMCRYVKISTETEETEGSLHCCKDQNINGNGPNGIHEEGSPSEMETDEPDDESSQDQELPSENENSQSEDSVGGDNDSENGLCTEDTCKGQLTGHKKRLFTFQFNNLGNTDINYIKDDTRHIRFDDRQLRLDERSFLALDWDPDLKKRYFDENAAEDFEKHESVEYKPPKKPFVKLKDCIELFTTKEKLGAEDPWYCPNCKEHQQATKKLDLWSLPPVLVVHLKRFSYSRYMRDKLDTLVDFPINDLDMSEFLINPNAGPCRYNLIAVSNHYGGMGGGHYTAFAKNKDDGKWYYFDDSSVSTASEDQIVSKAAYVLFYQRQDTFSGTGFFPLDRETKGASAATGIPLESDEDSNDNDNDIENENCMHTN
Chain of UniProt Q13867 (whole entry, looked up): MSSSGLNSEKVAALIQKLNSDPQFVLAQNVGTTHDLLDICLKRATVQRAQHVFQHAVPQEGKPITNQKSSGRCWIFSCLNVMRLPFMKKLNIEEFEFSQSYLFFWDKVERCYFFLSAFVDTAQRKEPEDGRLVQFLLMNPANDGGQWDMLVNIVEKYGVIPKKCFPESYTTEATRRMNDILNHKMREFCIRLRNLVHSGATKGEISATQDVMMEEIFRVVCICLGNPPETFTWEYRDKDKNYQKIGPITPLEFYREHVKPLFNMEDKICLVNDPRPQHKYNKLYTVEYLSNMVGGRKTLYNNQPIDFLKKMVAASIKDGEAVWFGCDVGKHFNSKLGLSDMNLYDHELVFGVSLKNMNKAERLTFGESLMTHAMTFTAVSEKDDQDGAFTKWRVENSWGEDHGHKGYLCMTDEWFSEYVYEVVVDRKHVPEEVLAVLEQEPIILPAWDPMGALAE
Chain of UniProt P31645 (whole entry, looked up): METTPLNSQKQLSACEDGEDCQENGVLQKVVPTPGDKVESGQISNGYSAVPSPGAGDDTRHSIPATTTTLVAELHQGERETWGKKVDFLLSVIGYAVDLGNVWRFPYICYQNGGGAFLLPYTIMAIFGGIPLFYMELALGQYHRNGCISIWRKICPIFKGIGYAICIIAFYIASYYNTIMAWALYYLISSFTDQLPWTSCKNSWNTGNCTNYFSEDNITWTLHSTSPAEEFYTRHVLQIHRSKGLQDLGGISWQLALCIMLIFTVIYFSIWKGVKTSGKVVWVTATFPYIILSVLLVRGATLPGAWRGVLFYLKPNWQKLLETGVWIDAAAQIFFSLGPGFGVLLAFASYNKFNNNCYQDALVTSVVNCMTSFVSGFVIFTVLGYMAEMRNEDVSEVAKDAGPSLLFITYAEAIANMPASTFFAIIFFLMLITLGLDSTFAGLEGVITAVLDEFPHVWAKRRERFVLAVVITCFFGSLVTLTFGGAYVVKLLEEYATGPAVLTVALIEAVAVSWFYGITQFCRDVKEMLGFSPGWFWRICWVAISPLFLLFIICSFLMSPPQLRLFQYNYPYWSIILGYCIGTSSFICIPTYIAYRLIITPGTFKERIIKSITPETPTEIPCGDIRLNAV
Chain of UniProt Q96C86 (whole entry, looked up): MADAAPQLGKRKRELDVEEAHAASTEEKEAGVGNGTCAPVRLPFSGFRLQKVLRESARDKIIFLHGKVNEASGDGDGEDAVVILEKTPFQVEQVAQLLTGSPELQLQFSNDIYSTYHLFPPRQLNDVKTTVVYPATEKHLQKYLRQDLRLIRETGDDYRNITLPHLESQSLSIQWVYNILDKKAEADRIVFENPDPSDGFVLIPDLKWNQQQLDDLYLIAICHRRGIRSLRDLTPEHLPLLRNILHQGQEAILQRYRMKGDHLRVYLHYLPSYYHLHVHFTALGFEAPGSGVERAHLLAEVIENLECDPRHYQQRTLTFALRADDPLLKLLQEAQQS
Chain of UniProt Q03431 (whole entry, looked up): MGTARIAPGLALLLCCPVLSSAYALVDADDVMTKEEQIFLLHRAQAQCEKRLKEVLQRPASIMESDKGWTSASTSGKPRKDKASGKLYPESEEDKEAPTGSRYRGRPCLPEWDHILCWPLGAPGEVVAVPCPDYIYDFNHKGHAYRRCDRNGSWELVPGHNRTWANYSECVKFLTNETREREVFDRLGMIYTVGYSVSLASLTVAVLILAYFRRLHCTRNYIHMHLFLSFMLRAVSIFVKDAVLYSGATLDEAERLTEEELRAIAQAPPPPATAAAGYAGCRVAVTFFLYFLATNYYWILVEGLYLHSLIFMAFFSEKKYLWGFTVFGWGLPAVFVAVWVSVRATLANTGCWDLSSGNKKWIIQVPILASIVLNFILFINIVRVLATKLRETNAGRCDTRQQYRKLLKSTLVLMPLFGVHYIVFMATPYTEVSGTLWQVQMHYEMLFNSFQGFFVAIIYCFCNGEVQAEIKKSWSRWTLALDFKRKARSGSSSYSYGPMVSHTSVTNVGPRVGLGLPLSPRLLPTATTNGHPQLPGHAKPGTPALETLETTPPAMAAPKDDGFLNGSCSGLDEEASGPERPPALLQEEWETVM

Structure (SMILES)	target	test	system	conditions	scale	measurement	result
O=c1cc(Nc2cccc(O)c2)c2ccccc2o1	ADRA1A (Homo sapiens, UniProt P35348)	intracellular Ca2+ mobilization, agonist	COS-7	500 µM	reference: 3 µM ionomycin	agonist activity	7.39 ± 4.17%
O=C1c2sc(-c3ccc(N4CCC(F)C4)nc3F)nc2CCN1c1cccnc1 (stereo not shown)	TARDBP aggregated	radioligand binding	human, FTLD-TDP type A insoluble extract	1.29 nM		specific binding	0.449 nM and 0.23 nM
CC[C@H](C)[C@H](NC(=O)[C@@H](NC(=O)[C@H](CCCCN)NC(=O)[C@@H](N)[C@@H](C)O)C(C)C)C(=O)N[C@@H](CC(C)C)C(=O)N[C@@H](Cc1c[nH]cn1)C(N)=O	MAPT (Homo sapiens, UniProt P10636)	fibril formation, ThT fluorescence		0.1-fold of tau, 37 °C, together with: wild-type tau 10 µM, heparin	reference: untreated	aggregation half-time	71 ± 7%
CC(=O)N[C@@H](CO)C(=O)N[C@H](C(=O)N[C@@H](CCC(=O)O)C(=O)N[C@H](C(=O)N[C@@H](CC(=O)O)C(=O)COC(=O)c1c(C)cccc1C)C(C)C)C(C)(C)C	CASP10	enzyme activity, inhibitor				kinact/KI	207000 M⁻¹ s⁻¹
CCn1cc(-c2cccc(C(F)(F)F)c2)c2sc(C(=N)NC3CCS(=O)(=O)CC3)cc2c1=O	TRIM24 (Homo sapiens, UniProt O15164)					ΔTm	-0.6 °C
CC(=O)N[C@@H](CC(C)C)C(=O)N[C@@H](CCC(=O)O)C(=O)N[C@@H](CCC1CCCCC1)C(=O)N[C@@H](CC(=O)O)C(=O)COC(=O)c1c(C)cccc1C	CASP10	enzyme activity, inhibitor				kinact/KI	312000 M⁻¹ s⁻¹
COC(=O)[C@@]1(C)C=C(C(=O)Nc2cccc(C(=O)Nc3ccc(Nc4nccc(-c5cccnc5)n4)c(C)c3)c2)C(=O)CC1	MAPK1 (Homo sapiens, UniProt P28482)	kinase activity, inhibitor		0.5487 µM, unit not given	reference: no inhibitor	remaining activity	0.926
CC[C@H](C)[C@@H]1NC(=O)[C@H](Cc2ccccc2)NC(=O)[C@H](CCC(=O)O)NC(=O)[C@H](CCCNC(=N)N)NC(=O)CNC(=O)[C@@H](NC(=O)[C@H](CC(C)C)NC(=O)[C@H](CCCNC(=N)N)NC(=O)[C@@H](NC(=O)CNC(=O)[C@H](Cc2ccc(O)cc2)NC(=O)[C@@H]2CCCN2C(=O)[C@H](C)NC(=O)[C@H](C)NC(=O)[C@@H](N)CCCNC(=N)N)C(C)C)CSSC[C@@H]2NC(=O)[C@@H](NC(=O)[C@H](CO)NC(=O)[C@H](CO)NC(=O)[C@H](CO)NC(=O)[C@H](CC(C)C)NC(=O)CNC(=O)[C@H](C)NC(=O)[C@H](CC(C)C)NC(=O)[C@@H](NC(=O)[C@@H](N)CC(=O)O)C(C)C)CSSC[C@H](NC(=O)CNC(=O)[C@H](Cc3c[nH]c4ccccc34)NC(=O)[C@H](CCCCN)NC2=O)C(=O)N[C@@H](CO)C(=O)N[C@@H](CCCCN)C(=O)N[C@@H](CO)C(=O)N[C@@H](CCC(=O)O)C(=O)N[C@@H]([C@@H](C)CC)C(=O)N[C@@H](CO)C(=O)N[C@@H](CO)C(=O)N[C@@H](CC(C)C)C(=O)N[C@H](C(=O)O)CSSC[C@@H](C(=O)NCC(=O)NCC(=O)N[C@@H](CO)C(=O)N[C@@H](CCCNC(=N)N)C(=O)N[C@@H](Cc2c[nH]c3ccccc23)C(=O)O)NC(=O)[C@H]([C@@H](C)O)NC(=O)[C@H](Cc2ccccc2)NC(=O)[C@H]([C@@H](C)CC)NC(=O)[C@H](C(C)C)NC(=O)[C@H](C)NC(=O)[C@H](CCCNC(=N)N)NC1=O	RXFP3 (Homo sapiens, UniProt Q9NSD7, H379A)		HEK-293T		reference: wild type	Emax	62.4 ± 3.21%
O=C1c2sc(-c3ccc(N4CCC(CO)CC4)nc3F)nc2CCN1c1cccnc1	TARDBP aggregated	binding, surface plasmon resonance	brain-derived TDP-43 aggregates	1.17 nM		SPR response	1.74 RU
C#CCOC(=O)[C@@]1(C)C=C(C(=O)OC(C)(C)C)C(=O)CC1	MAPK8 (Homo sapiens, UniProt P45983)	D-peptide binding, inhibitor, FP peptide displacement		200 µM	lower is stronger displacement	fraction bound	0
CN1CCC[C@@H]1C(=O)N[C@@H](Cc1ccc(-c2ccccc2)cc1)B(O)O	20S proteasome (Plasmodium falciparum, UniProt A0A5K1K7U1+Q8IJT1)	progress curve				residence time	37 min
Cc1cc(C)cc(COc2cc3c(cc2OCc2cc(C)cc(C)c2)C2CC(O)(Cc4cn(CCOCCOCCNC(=O)CCCCC5SCC6NC(=O)NC65)nn4)CC(C)N2CC3)c1 (stereo not shown)	SLC25A24 (Homo sapiens, UniProt Q6NUK1)	biotinylated probe pull-down		10 µM probe	reference: heavy over light	SILAC ratio	1.78
CC(=O)N[C@@H](Cc1ccc(O)cc1)C(=O)N[C@@H](CCCCN)C(=O)N[C@@H](C)C(=O)N[C@@H](CC(=O)O)C(=O)COC(=O)c1c(C)cccc1C	CASP10	enzyme activity, inhibitor				kinact/KI	123000 M⁻¹ s⁻¹
CC1(C)C[C@@H](Nc2cccc(-c3sc(C(=O)O)c(OCC(=O)O)c3Cl)c2)CCN1S(=O)(=O)Cc1cccc(NC(=O)CN2CCC(c3ccc4c(c3)oc(=O)n4C3CCC(=O)NC3=O)CC2)c1 (stereo partly shown)	PTPN2 (Homo sapiens, UniProt P17706, H30A/P33A/R35A)	degrader, bio-layer interferometry		125 nM	higher = more binding	BLI binding response	0.473 a.u.
CNC(=N)NCCC[C@H](NC(=O)[C@H](CC(C)C)NC(=O)NNC(=O)[C@H](Cc1ccccc1)NC(=O)[C@@H](NC(=O)[C@H](CC(N)=O)NC(=O)[C@@H]1C[C@@H](O)CN1C(=O)[C@@H](Cc1ccc(O)cc1)NC(C)=O)[C@@H](C)O)C(=O)N[C@@H](Cc1c[nH]c2ccccc12)C(N)=O	KiSS-1 receptor (KISS1R, Homo sapiens, UniProt Q969F8, Q122A)	inositol phosphate, agonist	HEK293			Emax	9.18%
CCN(CC)C(CO)c1cccc2c(C)c(C)oc12 (stereo not shown)	LPAR1 (Homo sapiens, UniProt Q92633, W210A)	G-protein dissociation, agonist, NanoBiT	HEK-293T	100 nM, W210A mutant	reference: baseline luminescence	fold change	0.632 and 0.476 and 0.663 and 0.935 and 0.6 and 0.759
CC(=O)N[C@@H](Cc1c[nH]c2ccccc12)C(=O)N[C@@H](CCCNC(=N)N)C(=O)N[C@@H](CO)C(=O)N[C@@H](CC(=O)O)C(=O)COC(=O)c1c(C)cccc1C	CASP8	inhibitor		recombinant enzyme		kobs/[I]	31000 M⁻¹ s⁻¹
CCCCCCCCCCCCCCCC(=O)NCCCC[C@H](NC(=O)[C@H](CCC(=O)O)NC(=O)[C@H](Cc1ccc(O)cc1)NC(=O)[C@H](CCC(=O)O)NC(=O)COCC(=O)NCCCOCCOCCOCCCNC(=O)[C@H](Cc1c[nH]c2ccccc12)NC(=O)[C@H](CCCCN)NC(=O)[C@H](C)NC(=O)[C@H](CCCCNC(=N)N)NC(=O)[C@H](CCC(N)=O)NC(=O)[C@H](Cc1c[nH]cn1)NC(=O)[C@H](CCSC)NC(=O)[C@H](CC(C)C)NC(=O)[C@H](CCC(N)=O)NC(=O)[C@@H](NC(=O)[C@H](CCC(=O)O)NC(=O)C(C)(C)NC(=O)[C@@H](NC(=O)C(C)(C)N)C(C)C)[C@@H](C)CC)C(=O)N[C@@H](CCC(=O)O)C(=O)N[C@@H](Cc1ccc(O)cc1)C(=O)N[C@@H](CCC(=O)O)C(N)=O	PTH1R (Homo sapiens, UniProt Q03431)	agonist	Saos-2 with cAMP reporter	1 pM, 30 min, ligand-on phase	higher = more cAMP	cAMP luminescence AUC	0.9 a.u.
C[Si]1(C[C@H](CN)CC(=O)O)CCCC1	SLC6A4 (Homo sapiens, UniProt P31645)	ligand displacement, radioligand		70 µM		inhibition	7%
C1=[N+]2CCC[N+]3=Cc4ccc5[n]4[Au-]23[n]2c1ccc2-c1nc2ccccc2nc1-5.F[P-](F)(F)(F)(F)F	DNA topoisomerase 1 (TOP1, Homo sapiens, UniProt P11387)			0.5 to 30 µM, together with: 50 units TOP1		linear DNA	< 1%
CCCCCC(O)/C=C/C=O (stereo not shown)	Bleomycin hydrolase (Homo sapiens, UniProt Q13867)	competitive isoTOP-ABPP	Ramos soluble proteome	100 µM, 60 min, together with: iodoacetamide probe	reference: DMSO over compound-treated, higher = stronger cysteine blockade	isoTOP-ABPP competition ratio	1.1
C[n+]1cn([C@@H]2O[C@H](COP(=O)(O)OP(=O)([O-])C(F)(F)P(=O)(O)O)[C@@H](O)[C@H]2O)c2nc(N)nc(O)c21	DCPS (Homo sapiens, UniProt Q96C86)	substrate, HPLC		concentration not given, 120 min		hydrolysis	14.4 ± 0.6%
CC(=O)N1C[C@H](O)C[C@H]1C(=O)N[C@H](C(=O)N[C@@H](CO)C(=O)N[C@@H](CC(=O)O)C(=O)COC(=O)c1c(C)cccc1C)C(C)C	CASP8	enzyme activity, inhibitor				kinact/KI	431000 M⁻¹ s⁻¹
CC[C@H](C)[C@H](NC(=O)[C@H](CCC(N)=O)NC(=O)[C@@H](NC(=O)[C@@H]1CCCN1[C@@H]1CN(C(=O)[C@H](CCCCN)NC(=O)[C@H](CC(N)=O)NC(=O)[C@@H](NC(=O)[C@@H](NC(=O)[C@H](CCC(N)=O)NC(=O)[C@@H](N)C(C)C)[C@@H](C)CC)[C@@H](C)CC)CC[C@H]1NS(=O)(=O)c1ccc(C)cc1)C(C)C)C(=O)N[C@H](C(=O)N[C@@H](Cc1ccc(O)cc1)C(=O)N[C@@H](CCCCN)C(N)=O)C(C)C	Microtubule-associated protein tau, PHF6* peptide (MAPT, Homo sapiens, UniProt P10636)	fibril formation, ThT fluorescence		5-fold of peptide, 240 min, pH 7.4, together with: Ac-PHF6* 25 µM, heparin	reference: untreated	ThT fluorescence	9 ± 1%
CC(=O)N[C@@H](Cc1ccccc1Cl)C(=O)N[C@@H](CCC(=O)O)C(=O)N[C@@H](C)C(=O)N[C@@H](CC(=O)O)C(=O)COC(=O)c1c(C)cccc1C	CASP8	enzyme activity, inhibitor				kinact/KI	2.34e+06 M⁻¹ s⁻¹
CCCCCCCCCCCCC/C=C/C=O	Gasdermin-D (GSDMD, Homo sapiens, UniProt P57764)	competitive isoTOP-ABPP, measured: GSDMDC1 cysteine peptide	proteome, soluble, MDA-MB-231	100 µM, together with: iodoacetamide probe	reference: DMSO over compound-treated, higher = stronger cysteine blockade	isoTOP-ABPP competition ratio	1
N#CN1CC[C@H](C(=O)Nc2nc3c(s2)CN(C(=O)Cn2cc(COCCOCCOCCOCCNC(=O)CCCC[C@@H]4SC[C@@H]5NC(=O)N[C@@H]54)nn2)CC3)C1	USP15 (Homo sapiens, UniProt Q9Y4E8)	probe binding, affinity probe, neutravidin pull-down LC-MS/MS	HEK293T, cell lysate	5 µM, 1 h, mean of three replicates, unit not given	higher = more pulled down	iBAQ abundance	1.81e+06
CC(=O)N[C@H](CCc1ccccc1)C(=O)N[C@@H](CCC(=O)O)C(=O)N[C@@H](CCC(N)=O)C(=O)N[C@@H](CC(=O)O)C(=O)COC(=O)c1c(C)cccc1C	CASP8	enzyme activity, inhibitor				kinact/KI	134000 M⁻¹ s⁻¹
